# Measured values pooled from the literature.
# Every numbered part comes from another study and shows a few of its results, in no order. Positions count from the first letter of the parent shown.
# UniProt O14920, sequence (whole entry, looked up): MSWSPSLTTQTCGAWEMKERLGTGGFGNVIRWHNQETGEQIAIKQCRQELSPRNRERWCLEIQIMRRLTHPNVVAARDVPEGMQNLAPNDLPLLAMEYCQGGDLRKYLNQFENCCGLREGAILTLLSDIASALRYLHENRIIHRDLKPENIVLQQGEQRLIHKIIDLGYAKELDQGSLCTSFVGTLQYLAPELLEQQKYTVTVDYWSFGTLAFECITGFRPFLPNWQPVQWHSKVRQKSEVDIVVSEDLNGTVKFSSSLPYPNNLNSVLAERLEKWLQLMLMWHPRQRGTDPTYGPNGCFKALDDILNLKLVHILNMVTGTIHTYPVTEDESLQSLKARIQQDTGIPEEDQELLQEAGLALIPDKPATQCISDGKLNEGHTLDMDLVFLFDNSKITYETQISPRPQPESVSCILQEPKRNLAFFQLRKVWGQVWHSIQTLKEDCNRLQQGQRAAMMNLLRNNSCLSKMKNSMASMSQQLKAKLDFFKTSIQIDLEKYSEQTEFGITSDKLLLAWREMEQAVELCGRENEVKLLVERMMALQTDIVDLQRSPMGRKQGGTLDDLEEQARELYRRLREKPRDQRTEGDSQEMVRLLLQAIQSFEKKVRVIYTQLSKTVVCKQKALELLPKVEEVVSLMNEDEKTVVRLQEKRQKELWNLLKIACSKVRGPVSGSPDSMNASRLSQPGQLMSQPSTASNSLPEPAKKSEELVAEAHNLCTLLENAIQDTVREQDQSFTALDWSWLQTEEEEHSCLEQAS

# Block 1
# Target: POU domain, class 5, transcription factor 1, POU domain (Pou5f1, Mus musculus, UniProt P20263, residues 131-289)
# UniProt P20263, sequence (131-289, looked up): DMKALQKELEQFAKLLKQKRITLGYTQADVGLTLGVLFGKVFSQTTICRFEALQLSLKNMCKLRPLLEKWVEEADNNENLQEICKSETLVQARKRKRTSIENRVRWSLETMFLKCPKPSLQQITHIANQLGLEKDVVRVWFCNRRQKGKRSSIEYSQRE
# Method: Spec-seq
# Form: double-stranded DNA, one strand shown
# Matrix: in vitro
# Concentration: not given
# Setting: whole probe, mean of replicates
# Reference: not given
# Direction: lower = stronger binding
# All sequences stand within: GAGTCGTCTCGTCAGCAC … ATCCGTAGAGCACTCAGGTC
Oligonucleotide,relative binding energy
ATATTC,-1.18 ln ratio
TCGCTA,0.278 ln ratio
ACTGTA,0.669 ln ratio
CCGCTA,0.685 ln ratio
ATACCA,0.184 ln ratio
ATAGCG,0.681 ln ratio
TGATTA,-0.519 ln ratio
TGGTTA,0.579 ln ratio

# Block 2
# Target: CEP164, C-terminal peptide (human)
# Method: DHFR complementation, deep sequencing
# Matrix: yeast
# Setting: single substitutions, model-inferred values
# Reference: wild type
# Direction: higher = weaker binding
# Parent: PDZK1, PDZ domain 2 (human); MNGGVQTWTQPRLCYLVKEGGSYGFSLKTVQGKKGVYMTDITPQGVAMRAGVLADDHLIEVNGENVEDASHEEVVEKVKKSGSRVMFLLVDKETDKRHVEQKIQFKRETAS; partner HNRVKVYRF
Substitution,binding free energy change [kcal/mol]
S22D,0.725
V66C,0.228
T9S,-0.0538
E72P,0.941
D95M,-0.136
S70R,0.0824
A50M,0.292
F25I,0.871

# Single results of other studies
# NUAK1: NUAK family SNF1-like kinase 1 (NUAK1, Homo sapiens, UniProt O60285)
# UniProt O60285, sequence (whole entry, looked up): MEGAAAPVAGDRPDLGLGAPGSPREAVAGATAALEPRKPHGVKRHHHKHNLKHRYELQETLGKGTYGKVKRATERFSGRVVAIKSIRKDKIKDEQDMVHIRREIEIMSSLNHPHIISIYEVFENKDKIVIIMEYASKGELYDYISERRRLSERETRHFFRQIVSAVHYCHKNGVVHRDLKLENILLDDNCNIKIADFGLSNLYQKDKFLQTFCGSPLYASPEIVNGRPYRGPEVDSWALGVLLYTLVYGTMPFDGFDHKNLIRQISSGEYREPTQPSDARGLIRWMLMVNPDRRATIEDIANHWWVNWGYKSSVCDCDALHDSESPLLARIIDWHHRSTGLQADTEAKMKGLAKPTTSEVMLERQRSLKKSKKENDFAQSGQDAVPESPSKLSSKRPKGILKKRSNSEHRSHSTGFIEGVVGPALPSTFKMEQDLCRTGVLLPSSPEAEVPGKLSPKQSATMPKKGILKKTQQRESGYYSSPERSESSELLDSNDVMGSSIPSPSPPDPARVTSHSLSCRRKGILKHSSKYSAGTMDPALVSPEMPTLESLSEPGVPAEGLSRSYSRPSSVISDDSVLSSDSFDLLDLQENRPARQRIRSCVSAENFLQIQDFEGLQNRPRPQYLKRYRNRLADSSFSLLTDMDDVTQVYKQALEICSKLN
Molecule,target,assay,test system,conditions,scale,measurement,result
CC(C)[C@H](CO)Nc1nc(Nc2cccc(Cl)c2)c2ncn(C(C)C)c2n1,NUAK1,"enzyme activity, inhibitor",,0.5 µM,reference: control,remaining activity,71.1%
"PhoQ, residues 284 288 289 292 302 303 GANMMA","PhoP, residues 12 14 15 18 19 GQALL (Escherichia coli, UniProt P23836)","Sort-seq, refers to: YFP reporter",E. coli,"PhoQ-PhoP variant library, added: 10 µM Mg2+","reference: high Mg2+ state, higher = stronger signaling",fold induction,3.96
CS(=O)(=O)CCNCc1ccc(-c2ccc3ncnc(Nc4ccc(OCc5cccc(F)c5)c(Cl)c4)c3c2)o1,NUAK1,"enzyme activity, inhibitor",,0.5 µM,reference: control,remaining activity,108%
CN(C)C(=O)Cn1cc(-c2nc([C@@](C)(c3ccc(-c4cnc(N)nc4)cc3)C3CC3)no2)cn1,"IKBKB (Homo sapiens, UniProt O14920)","cell-free assay, competition with immobilised ligand",,1 µM,,remaining binding,100%

# Some of these lines once more (single results of other studies):
Molecule,target,assay,test system,conditions,scale,measurement,result
"PhoQ, residues 284 288 289 292 302 303 GANMMA","PhoP, residues 12 14 15 18 19 GQALL (Escherichia coli, UniProt P23836)","Sort-seq, refers to: YFP reporter",E. coli,"PhoQ-PhoP variant library, added: 10 µM Mg2+","reference: high Mg2+ state, higher = stronger signaling",fold induction,3.96
CS(=O)(=O)CCNCc1ccc(-c2ccc3ncnc(Nc4ccc(OCc5cccc(F)c5)c(Cl)c4)c3c2)o1,NUAK1,"enzyme activity, inhibitor",,0.5 µM,reference: control,remaining activity,108%
